Assay results collected from several papers.
Numbered parts are unrelated; each lists some results of a single study.

Block 1 — technique: protein binding microarray; molecule type: double-stranded DNA, one strand shown; sample: in vitro; concentration: not given; baseline: not given; reading: higher = stronger binding
Target: Histone acetyltransferase KAT6A, both winged helices, GST fusion (KAT6A, Homo sapiens, UniProt Q92794, residues 1-181)
Setting: 8-mer, flanks averaged, mean of 2 arrays, mostly near background
Target sequence (chain): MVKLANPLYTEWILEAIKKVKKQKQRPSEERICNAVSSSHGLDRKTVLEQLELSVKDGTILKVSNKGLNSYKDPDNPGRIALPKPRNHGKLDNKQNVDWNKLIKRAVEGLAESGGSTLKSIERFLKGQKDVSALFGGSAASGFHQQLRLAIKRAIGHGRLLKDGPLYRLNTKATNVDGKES
Sequence	E-score
CACTTCCG	0.0593
GGACTTCA	0.00091
CTTCGGAC	0.122
CCATCTAC	-0.00471
GATGTGAA	-0.0768
CGACGGGC	0.315
CTTTATTC	-0.188
AAAACTCG	-0.0193
AATCCTGC	-0.0971

Block 2 — technique: universal PBM; molecule type: double-stranded DNA, one strand shown; sample: in vitro; concentration: not given; reading: higher = stronger binding
Target: Sal-like protein 4, full length isoform B (SALL4, Homo sapiens, UniProt Q9UJQ4-2, residues 1-616)
Setting: 8-mer, flanks averaged, mean of replicates
Sequence	E-score
CCAGGGAA	-0.253
CCTACACG	-0.126
GCTCACCA	-0.205
CTGAGAAA	-0.0869
AATACCAT	0.248
GTTGTGTA	0.2
ACTAAGCA	0.00422
GTCCTACA	-0.00077

Single results of other studies
Molecule	target or system	assay	test system	setting	scale	measurement	value
PhoQ, residues 284 288 289 292 302 303 TLSLKA	PhoP, residues 12 14 15 18 19 NMSFL (Escherichia coli, UniProt P23836)	Sort-seq, measured: YFP reporter	E. coli	PhoQ-PhoP variant library, together with: 10 µM Mg2+	baseline: high Mg2+ state, higher = stronger signaling	fold induction	1.8
H2BC20P (Homo sapiens, UniProt Q6DN03)	H2AC21 (Homo sapiens, UniProt Q8IUE6)	cross-linking MS	–	hits only	–	interaction screen	cross-linked

For quick reference, copied from above (block 1):
Sequence	E-score
CTTCGGAC	0.122
